Results of several laboratories.
Each numbered part is a random draw from the data of one study; scales do not carry over between parts.

Block 1
Target: Interferon regulatory factor 5, full length, phosphomimetic (IRF5, Homo sapiens, UniProt Q13568-2, residues 1-514, K96S/S451D/S453D/S456D/S462D)
Method: protein-binding microarray
Molecule type: double-stranded DNA, one strand shown
Matrix: in vitro
Tested at: 250 nM
Setting: 60-bp whole probe
With: salmon DNA 0.4 mg/ml
Reference: random background probes
Reading: higher = stronger binding
Constant ends, left off below: GCCTAGCAC … GTCTTGATTCGCTTGACGCTGCTG
Sequence | log fluorescence
GACGGAATGGGGTATCGGGACGTGCTA | 0.282 z-score
TCAACAATGGCTTTGCCACTGTGCTAG | -0.29 z-score
GACGAGCTCAGTTTCGAGACGTGCTAG | 4.92 z-score
GACGAACAGAGTCTCGAGACGTGCTAG | -0.469 z-score
GAAGGTATCCTACTGCTGACGTGCTAG | -0.265 z-score
GACCGTTTCCTTTCCCTGACGTGCTAG | 1.15 z-score
GACGATATAAGACTGGAGACGTGCTAG | 0.296 z-score
GACGGTATCCTTTCCCTGACGTGCTAG | 0.502 z-score
TTAGATTTCGGGTATCGGTTAGTGCTA | 7.78 z-score
TGCTTCCTCTTTTTTGTTCCGTGCTAG | 1.07 z-score
TGCTATACCACTCTTGCTTTGTGCTAG | 0.151 z-score
GACGGTTTCCTGCTCCTGACGTGCTAG | 0.29 z-score
TTAGATATCGGGACAGGATTAGTGCTA | 1.46 z-score
TTAGATTCCAGTTTGGATTAGTGCTAG | 0.322 z-score
TCATCGTAAGCAAAAATACTGTGCTAG | 0.643 z-score
TTAGGTTTCCTTTCCCTTTCGTGCTAG | 2.68 z-score
GACGGTCTCGGTCTAGGGACGTGCTAG | 0.219 z-score
TCAAATATATATTCATAACTGTGCTAG | 0.749 z-score
GTGGAAATCAGTATGTTCCCGTGCTAG | 0.221 z-score
TTAGGTATCGGTCCCGGTTAGTGCTAG | 5.77 z-score
GACGATTTCGGACTGGGGACGTGCTAG | 1.37 z-score
TCAACTTTGCTCTGTGCGACTGTGCTA | -0.00543 z-score

Block 2
Target: RNA binding protein fox-1 homolog 2, RRM domain, GST-SBP tag (RBFOX2, Homo sapiens, UniProt O43251-10, residues 100-194)
Method: RNA Bind-n-Seq
Molecule type: RNA
Matrix: in vitro
Tested at: 365 nM
Setting: natural RNA segment, single round, ends assumed
Reference: no-protein control
Reading: higher = stronger binding
Constant ends, left off below: GGGAGUUCUACAGUCCGACGAUC … UGGAAUUCUCGGGUGCCAA
Target sequence (chain): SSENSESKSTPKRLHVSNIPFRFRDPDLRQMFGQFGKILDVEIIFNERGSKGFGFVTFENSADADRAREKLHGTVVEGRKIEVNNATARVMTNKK
Sequence | RBNS enrichment (R)
AGUAUUUUGUGUCACUGAGAAGCUUUACAAUGGAUGCUUUUGAAACAAGUAUCAGCAAAAGGAUUUGUUUUCACUCUGGGAGGAGAGGGUGGAGAAAGCACUUGCUUUCA | 0.839
UCAUGUCUGUCCCAUUCCUAUACCAUCCCCACCCUGUUGUAUGUAUUAUAGGAUUUGUAUUUUCUCCUUUUUUUUCCCCCUUCCAUUCCUUCUCCCCUCUUGCAUUCAAG | 1.7
AAGGAAAAAAAAACAAAAUAACAAGGGUUAGAAGUUCAAAGUAAAAAACAGACAUCUUUGAUUUCUGAUUAAGAAAAAGCACUCUACAUCUUUUUUUUUUAAGUUUUCUA | 0.818
CAGCUAUCCUCCAGGUGGCUAGGGACAGUCUAUUCUGCUGCAACUGGAAAGUAGAGGGAACCGGCACUGCUCAGAGCAGAUGGCGGCUUCUGGAGGCACACAGUGGGAGU | 0.405
UCCACCUUUUUGUCUCUUUCUCCCAGGAUCUUCCCUCUGUCUCCCAGACUGUCUCCCAUCUGUUUCUCUCCCUCCUCCCAGAGCUGUGAGGAUGAAGGCAAGACUGAUUG | 0.869
UGUAAUGACCAGUGUUUAGAGUCCCUGUUGCUGAUACCUUUGAGUGAUUGACACCUGCUGCUUUUGAGGAGCUCGGCUGCAGUGAUCACUGGCGUGUGGCACUCUGGCUA | 0.753
CCAGCAAAGGAAUCUAGGAAUGACAACUGCAGUGUCCACUCCUAAACACCUCCUUCUCUUACACCCUUCGAAAUGGGUACAAACUUAAUUCUUCUCAGAAACUGGAAGAC | 0.543
GGUCUUGUUAAAAUCUAGUCCGGGCGCAGUGGCUCACGCCUGUAAUCCCAGCACUUUGGGAGGCCAAGGCGGGCUGAUCACGAGGUCAAGAGAUCGAGACCAUCCUGGCC | 0.336
CCCAGUGGCUCUCAACCCAUGCGCUACCAAAUACGCCUGGGCAGCCGGGACGGGCCGGCGGGCACCAGGCUGGGGUCUCCUUGUCUGUGCUCUGAUAUGCUCCUUGACUG | 0.442
CUUCCUCGGGGCUCUCUGCUGCUCUACCAAUUGUGUUGCUUUCCACUUCUUCAGUGAUUCUUCAGUGAUCCUGAGAGACUAACAGCUGGAGACUCUAGCUGGAGCAGUUG | 0.336
AGUGUCAAAGCAGCUUGUGUUGGGGCGUGUGGGACUUGAGGAUUGGGGAUUGACAGGUUUCAUCAUCGGAUAGACAUUUGGUUAUCCAGAGAGAAUUGGUAAUUUGCCAG | 1.27
AAAAGAGAGAAAGUCCUUGCUCCCGGGAACUCCCACUCUCUCAGGAACCACAGACCACCAAUGUUGAAGUCAGAAUGGAAAGUGUGCCAGCAAGGAUUUCUGAACACUAA | 0.836

Block 3
Target: Fragile X messenger ribonucleoprotein 1, C-terminal low-complexity region (Fmr1, Mus musculus, UniProt P35922)
Method: RNA Bind-n-Seq
Molecule type: RNA
Matrix: in vitro
Tested at: 200 nM
Setting: whole 134-nt RNA, ends assumed
With: 150 mM KCl
Reference: input library
Reading: higher = stronger binding
Constant ends, left off below: GGGAGUUCUACAGUCCGACGAUC … UGGAAUUCUCGGGUGUCAAGG
Sequence | log2 enrichment
GUCCUGUGCUACACAUCGUAUGUACCGAAUCGGGGAAAAAAAGGGGUUUGGGGUGGGGAAAGUAUUAUGUUACGCCGUUCGGAUCUGCAC | 0.444
GAUUCCCUCCACAUGCUGCACGCGCAUCUCGCCCCCAGGGGCACUGCCUGGAAGAUUCAGGAGCCUGGGCGGCCUUCGCUUACUCUCACC | 0.95
UAACUUUAGAGGAGGAUCUGAUGGAUAUGGCAGUGGACGUGGAUUUGGGGAUGGCUAUAAAGGGUAUGGAGGAGGACCUGGAGGUGGCAA | 0.352
UCCUGUGCUACACAUCGUAUGUACCGAAUCGGUUUUUUGGGUUUUUUGGGGUUUUUUGGAAAGUAUUAUGUUACGCCGUUCGGAUCUGCA | -0.00311
CACAGACAACACCCACCCACACAGACACAGAGGGAAGGGGUUGGGAUGGGGACAGGGUGCACAGCAGGGCGGGGUAGGACCCCAGCCCCU | 1.48
GCAGGAAGUAAAAACAAAUGGAAAUGCUUCGGAUAGUGGCAGGGGUAGGGGUUGCUAAGGAAAGGGUGGGAUGGGAGUGGGUAAAGAGUU | 0.0233
CAAGUCCUGUGCUACACAUCGUAUGUACCGAAUCGGGAAAGGGAAAGGAAAGGGGAAAGUAUUAUGUUACGCCGUUCGGAUCUGCACUUC | 0.28
CCUUUUUGAGAAGGCCGGACCCAUUUGGGAUCUACGUCUUAUGAUGGAUCCACUGUCCGGUCAGAAUAGAGGGUAUGCAUUUAUCACCUU | -1.19
GACAGACAACACGCACCCACACAGACACAGAGGGAAGGGGUUGGGAUGGGGACAGGGUGCACAGCAGGGCGGGGUAGGACCCCAGCCCCU | 1.28
AGUCCUGUGCUACACAUCGUAUGUACCGAAUCGGGUUUUGGGUUUUGGGUUUUGGGGAAAGUAUUAUGUUACGCCGUUCGGAUCUGCACU | 0.981
GUUGUAGACACUCCUGGGAUCCUGGACCACCCUCUGGAGGAUAGGAACACCAUCGAGAUGCAGGCCAUCACUGCCCUGGCCCACCUCCGU | 0.444
UCCUGUGCUACACAUCGUAUGUACCGAAUCGGAAAAAAGGAAAAAAGGGGAAAAAAGGGGAAAGUAUUAUGUUACGCCGUUCGGAUCUGC | -0.641
UAACUUUAGAGGCGGAUCUGAUGGAUAUGGCAGUGGACGUGGAUUUGGGGAUGGCUAUAAUGGGUAUGGAGGAGGACCUGGAGGUGGCAA | 0.311
GUCCUGUGCUACACAUCGUAUGUACCGAAUCAAAUUUUUAAAUUUUUUUAAAUUUAAAAAAGUAUUAUGUUACGCCGUUCGGAUCUGCAC | -1.39

Block 4
Target: PABPC1L2, full length, GST fusion (mouse, UniProt A0ABA7IW68)
Method: RNAcompete
Molecule type: RNA
Matrix: in vitro
Tested at: 20 nM
Setting: 7-mer, probes averaged, single round
Reference: mean of 7-mers
Reading: higher = stronger binding
Construct (chain): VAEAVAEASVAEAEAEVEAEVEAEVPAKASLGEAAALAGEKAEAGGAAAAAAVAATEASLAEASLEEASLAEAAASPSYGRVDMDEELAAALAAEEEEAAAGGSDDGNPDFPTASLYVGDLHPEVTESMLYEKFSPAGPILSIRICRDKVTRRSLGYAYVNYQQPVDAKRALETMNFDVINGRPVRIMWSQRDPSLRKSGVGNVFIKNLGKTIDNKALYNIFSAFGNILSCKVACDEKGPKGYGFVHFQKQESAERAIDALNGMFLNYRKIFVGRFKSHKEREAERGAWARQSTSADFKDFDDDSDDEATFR
Sequence | 7-mer Z-score
GACCGCC | -0.309
GAGAUCC | -0.121
CAAGCCG | -0.139
AAUGCUU | 0.0134
AAUGUGG | 0.604
AUUUUGC | -0.271
GCGAGAU | 0.0678
GAGACCC | -0.0681
CCGCCAC | -0.284
GCUACAU | -0.177
AUUAGCC | -0.209
ACUAUAC | -0.188
UGUGGGC | -0.0264
CCGUACC | -0.338
CAUAUUA | -0.237
AGUAUCA | -0.0428
UGGCGAU | -0.0863
UCCUGUA | -0.277
AGGGGCC | 0.253
AAUAGAC | 0.302

Block 5
Target: Prothrombin, mature alpha-thrombin (F2, Homo sapiens, UniProt P00734)
Method: aptamer microarray, sandwich
Molecule type: DNA with 2'F-ANA
Matrix: in vitro
Tested at: 200 nM
Setting: whole 15-mer aptamer, many near background
With: Cy3 exosite-II aptamer, 400 nM
Reading: higher = stronger binding
Sequence: GGTTGGTGTGGTTGG
Modification | mean fluorescence intensity
2'F-ANA at 3 4 5 7 10 11 14 15 | 58.8 a.u.
2'F-ANA at 1 2 3 5 6 10 14 15 | 45.1 a.u.
2'F-ANA at 5 8 11 12 15 | 114 a.u.
2'F-ANA at 1 3 5 6 9 11 12 14 15 | 48.6 a.u.
2'F-ANA at 1 4 5 8 10 12 14 | 46.4 a.u.
2'F-ANA at 1 4 6 7 11 12 | 196 a.u.
2'F-ANA at 4 5 6 7 8 11 | 63.9 a.u.
2'F-ANA at 9 10 13 | 170 a.u.
2'F-ANA at 5 10 12 13 14 | 44.3 a.u.
2'F-ANA at 2 4 5 6 8 9 14 15 | 48.4 a.u.
2'F-ANA at 1 4 6 11 12 13 14 | 49.4 a.u.
2'F-ANA at 6 7 9 13 15 | 319 a.u.
2'F-ANA at 2 3 4 7 8 10 11 13 15 | 205 a.u.
2'F-ANA at 3 7 9 10 11 12 | 617 a.u.
2'F-ANA at 4 6 7 9 10 11 12 13 15 | 142 a.u.
2'F-ANA at 3 5 6 7 8 10 14 | 48.6 a.u.
2'F-ANA at 1 4 5 7 9 10 13 15 | 47.2 a.u.
2'F-ANA at 1 2 7 9 11 13 15 | 112 a.u.

For quick reference, copied from above (block 3):
Sequence | log2 enrichment
UAACUUUAGAGGAGGAUCUGAUGGAUAUGGCAGUGGACGUGGAUUUGGGGAUGGCUAUAAAGGGUAUGGAGGAGGACCUGGAGGUGGCAA | 0.352
UCCUGUGCUACACAUCGUAUGUACCGAAUCGGUUUUUUGGGUUUUUUGGGGUUUUUUGGAAAGUAUUAUGUUACGCCGUUCGGAUCUGCA | -0.00311
CACAGACAACACCCACCCACACAGACACAGAGGGAAGGGGUUGGGAUGGGGACAGGGUGCACAGCAGGGCGGGGUAGGACCCCAGCCCCU | 1.48
GCAGGAAGUAAAAACAAAUGGAAAUGCUUCGGAUAGUGGCAGGGGUAGGGGUUGCUAAGGAAAGGGUGGGAUGGGAGUGGGUAAAGAGUU | 0.0233
CAAGUCCUGUGCUACACAUCGUAUGUACCGAAUCGGGAAAGGGAAAGGAAAGGGGAAAGUAUUAUGUUACGCCGUUCGGAUCUGCACUUC | 0.28
CCUUUUUGAGAAGGCCGGACCCAUUUGGGAUCUACGUCUUAUGAUGGAUCCACUGUCCGGUCAGAAUAGAGGGUAUGCAUUUAUCACCUU | -1.19
GACAGACAACACGCACCCACACAGACACAGAGGGAAGGGGUUGGGAUGGGGACAGGGUGCACAGCAGGGCGGGGUAGGACCCCAGCCCCU | 1.28
AGUCCUGUGCUACACAUCGUAUGUACCGAAUCGGGUUUUGGGUUUUGGGUUUUGGGGAAAGUAUUAUGUUACGCCGUUCGGAUCUGCACU | 0.981
GUUGUAGACACUCCUGGGAUCCUGGACCACCCUCUGGAGGAUAGGAACACCAUCGAGAUGCAGGCCAUCACUGCCCUGGCCCACCUCCGU | 0.444
